# Measured values of several laboratories.
# Compare with care: the assays were run in different laboratories. “And” joins repeats or separate records; there may be more than shown. ± marks the error that the study gave.
# UniProt Q53GS9, sequence (whole entry, looked up): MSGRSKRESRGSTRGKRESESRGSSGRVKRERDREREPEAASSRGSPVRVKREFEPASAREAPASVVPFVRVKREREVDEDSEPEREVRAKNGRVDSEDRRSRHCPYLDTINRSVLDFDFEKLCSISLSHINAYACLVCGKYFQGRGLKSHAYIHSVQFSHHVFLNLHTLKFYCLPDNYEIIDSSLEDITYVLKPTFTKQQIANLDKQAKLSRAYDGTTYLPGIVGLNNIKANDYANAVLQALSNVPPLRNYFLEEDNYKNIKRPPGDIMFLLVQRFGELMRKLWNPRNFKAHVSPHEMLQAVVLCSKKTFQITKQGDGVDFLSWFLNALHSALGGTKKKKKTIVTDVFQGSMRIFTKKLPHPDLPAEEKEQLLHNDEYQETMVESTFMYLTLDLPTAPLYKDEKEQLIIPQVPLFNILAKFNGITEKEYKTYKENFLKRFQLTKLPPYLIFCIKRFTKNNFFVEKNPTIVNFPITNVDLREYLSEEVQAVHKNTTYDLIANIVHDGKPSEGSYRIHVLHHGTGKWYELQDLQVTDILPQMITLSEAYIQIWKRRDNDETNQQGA
Compound,tested on,test,system,conditions,how to read,quantity,value
N#Cc1ccn2c(-c3ccncc3)c(-c3ccc(F)cc3)nc2c1,,"kinase binding, competitor, MIB/MS competition, item: NPR1",Candida albicans cell lysate,1 µM,relative to: DMSO,log2 fold change,-0.0632
Cc1noc(C)c1-c1cc(C(O)(c2ccccn2)c2ccccn2)c2nc(C3CC3)[nH]c2c1,,item: HEXIM1 expression,"human, peripheral blood","4 mg, day 8, 1599 study",,maximum induction,64.6%
NC(=O)c1cnc2[nH]ccc2c1N[C@@H]1[C@@H]2CC3C[C@H]1C[C@@](O)(C3)C2,,flow cytometry,"Japanese healthy men, blood","oral, 100 mg twice daily, 72 h after day 7 dose",relative to: baseline,CD8+ naive T-cell change,-4.07%
COc1cc(Nc2ncc3c(n2)-c2ccc(Cl)cc2C(c2c(F)cccc2OC)=NC3)ccc1C(=O)O,,,"mouse, NB-1643 neuroblastoma xenograft","oral, 5.2 mg/kg, day 14",relative to: vehicle,relative tumour volume T/C,1.15
[2H][C@]1(Cc2ccc(OCCc3ccc(CC)cn3)cc2)SC(=O)NC1=O,,histopathology,"C57BL/6J mouse, choline-deficient diet",dose not given,,hepatic steatosis,decreased
OCC(O)CO,,ELISA,"male Gpd2 knockout mice, serum","oral in drinking water, 5 % w/v, 2 days",,plasma FGF21 level,806 pg/mL and 482 pg/mL and 491 pg/mL and 864 pg/mL and 939 pg/mL
CC(=O)N[C@H]1[C@H](O[C@H]2[C@H](O)[C@@H](NC(C)=O)C(O)O[C@@H]2CO)O[C@H](CO)[C@@H](O)[C@@H]1O (some centres unmarked),,"binding, equilibrium dialysis LC-MS",,"5 µM, thermostabilized A2AR-BRIL construct","relative to: no-protein control, direction not given",z-scored log2 fold change,0.22
O=C(O)CNC(=O)Cc1ccccc1,,,"ventricular cardiomyocytes, C57BL/6 mouse","dose not given, 0.276 s",,sarcomere length,1.68 µm
C=CCn1c(=O)c2cnc(Nc3ccc(N4CCN(C)CC4)cc3)nc2n1-c1ccc2c(n1)[C@@](O)(CC)CC2,,,"Calu-3, NOD/SCID mice, xenograft","oral, 80 mg/kg once daily, day 28",relative to: vehicle,tumour volume difference,310 ± 17.7 mm3
CC(C)NCC(O)c1ccc(O)c(O)c1 (centres unmarked),,,"ventricular cardiomyocytes, C57BL/6 mouse","dose not given, 0.744 s",,sarcomere length,1.72 µm
OCc1ccc(O)cc1,,DPPH radical,,300 µg/mL,,radical scavenging,16 ± 2.55%
CN(C(=O)n1cnc(-c2ccc[n+]([O-])c2)c1)C1CCCCC1,,,"mouse, formalin paw test","oral, 0.3 mg/kg, 225 min before formalin, late phase",direction not given,licking score,13.2
Cc1cn([C@H]2C[C@H](O)[C@@H](COP(=O)(O)O)O2)c(=O)[nH]c1=O,,"binding, equilibrium dialysis LC-MS",,"5 µM, thermostabilized A2AR-BRIL construct","relative to: no-protein control, direction not given",z-scored log2 fold change,0.653
C[C@@H](O)CCOC(=O)C[C@@H](C)O,,item: C10 acylcarnitine,"human, plasma","60 min, log2-transformed values",,metabolite level,-2.84 ± 1.19 µmol/L
CCC(CO)C(=O)O (centres unmarked),,"binding, equilibrium dialysis LC-MS",,"5 µM, thermostabilized A2AR-BRIL construct","relative to: no-protein control, direction not given",z-scored log2 fold change,0.362
CCN1[C@@H](C(=O)NC23CCC(C(=O)O)(CC2)CC3)[C@H](c2cccc(Cl)c2F)[C@]2(C(=O)Nc3cc(Cl)ccc32)C12CCCCC2,,,"human, advanced solid tumours, MDM2-amplified TP53 wild type","dose not given, eight patients, RECIST",,objective response rate,25%
O=P(O)(O)C(Cl)(Cl)P(=O)(O)O,,immunostaining,"mouse, sham-operated, hippocampal fissure",dose not given,relative to: day 1 over day 7,Iba1-positive area difference,-0.203%
CC1(C)CCC(c2ccc(Cl)cc2)=C(CN2CCN(c3ccc(C(=O)NS(=O)(=O)c4ccc(N[C@H](CCN5CCOCC5)CSc5ccccc5)c(S(=O)(=O)C(F)(F)F)c4)cc3)CC2)C1,,cell killing,"primary canine neoplastic T cells, dog 16",24 h,,EC50,0.143 µM
Oc1ccc(Br)cc1C=NCCN1CCOCC1,,nitric oxide scavenging,,40 µM,,inhibition,10.7%
COc1cc2cc(-c3ccc(CC(=O)Nc4cc(C(C)(C)C(F)(F)F)no4)cn3)cnc2cc1OC,,RECIST v1.1,human other RET-altered solid tumours,"75 mg, phase I",,best overall response PR,10%
Cc1ccc(C(=O)Nc2ccnc(S(N)(=O)=O)c2)c(N2CCCC(F)(F)CC2)n1,,noxious stimulus test,rhesus macaque,3 and 10 mg/kg,relative to: vehicle,nociceptive response,no effect
CCC(=O)NCC(=O)O,,"binding, equilibrium dialysis LC-MS",,"5 µM, thermostabilized A2AR-BRIL construct","relative to: no-protein control, direction not given",z-scored log2 fold change,-0.378
N#Cc1ccc2c(c1)[C@H]1CCCN(C(=O)c3ccc4[nH]cnc4c3)[C@H]1C2,,,human clinical trial,"oral, 240 mg once daily, 28 d",relative to: placebo,diastolic blood pressure change,-2.3 mmHg
CCNc1nc2c(c(N3CC(=O)Nc4cc(OC)ccc43)n1)CCC2,,immunohistochemistry,"mouse, A-375/TxR xenograft",2 or 4 mg/kg,relative to: vehicle,lung or liver metastasis,inhibited
Cn1cc(Nc2nccc(-c3ccc4c(c3)CN(C3COC3)CC[C@H]4NC(=O)c3cn(C(C)(C)C)nn3)n2)cn1,,"item: S phase Entry, Estrogen-mediated","splenic B cells, mouse","in vivo, 30 mg/kg, IgD-activated B cells","relative to: vehicle, positive = activation",pathway activation z-score,0
COC(=O)CCc1ccc(OCC(O)CNC(C)C)cc1 (centres unmarked),,,healthy male humans,"dose not given, 5 min, with: saline",relative to: baseline,diastolic blood pressure change,-1.3 mm Hg
O=C(O)CC(O)CC(=O)O,,"binding, equilibrium dialysis LC-MS",,"5 µM, thermostabilized A2AR-BRIL construct","relative to: no-protein control, direction not given",z-scored log2 fold change,0.267
O=C(O)CCc1cn2cccnc2n1,"Ubiquitin carboxyl-terminal hydrolase 39, ZnF-UBD domain (Homo sapiens, UniProt Q53GS9)",,,,,Kd,> 1000 µM
c1ccc(-c2n[nH]cc2-c2ccnc3ccccc23)nc1,,"kinase binding, competitor, MIB/MS competition, item: ENV7",Candida albicans cell lysate,1 µM,relative to: DMSO,log2 fold change,1.39
NCC(=O)Nc1cncc(-c2nn3c(=O)cc(N4CCNCC4)nc3s2)c1,,"ADP-induced platelet aggregation, light transmission aggregometry","human, stable CAD on aspirin, ex vivo platelets","subcutaneous, 0.05 mg/kg, 240 min post-dose, mean value, with: ADP 20 µM",,inhibition,12.3%
COc1cc(CNC(=O)CCCC/C=C/C(C)C)ccc1O,,nociceptive behaviour,mouse,"intraplantar, 1.6 µg",,licking duration,77.8 ± 3.8 s
Cc1cc2nc3c(=O)[nH]c(=O)nc-3n(C[C@H](O)[C@H](O)[C@H](O)COP(=O)(O)O)c2cc1C,,"binding, equilibrium dialysis LC-MS",,"5 µM, thermostabilized A2AR-BRIL construct","relative to: no-protein control, direction not given",z-scored log2 fold change,-0.188
CNCc1cc(-c2ccccc2F)n(S(=O)(=O)c2cccnc2)c1,,basal gastric acid secretion,pylorus-ligated rat,"oral, 2 mg/kg",,total acid output,238 ± 29.1 µEq/3 h
Cn1cc([C@H]2C[C@H]3CSC(N)=N[C@@]3(c3ccc(F)cc3F)CO2)cn1,,item: Aβx-40,"Mus musculus wild-type, cerebrospinal fluid","subcutaneous, 10 mg/kg, 3 h",,Aβ40 level,0.6 ng/mL
CC(C)[C@H](N)C(=O)O,,"binding, equilibrium dialysis LC-MS",,"5 µM, thermostabilized A2AR-BRIL construct","relative to: no-protein control, direction not given",z-scored log2 fold change,0.43
O=C(/C=C/c1ccc(O)c(O)c1/C=C/c1ccc(O)c(O)c1)O[C@H](Cc1ccc(O)c(O)c1)C(=O)O,,,isolated myocardial tissue,10 µM,,LVEDP,2.68 mmHg
N#Cc1ccc2c(-c3ccncc3)c(-c3ccc(F)cc3)nn2c1,,"kinase binding, competitor, MIB/MS competition, item: KIN2",Candida albicans cell lysate,10 µM,relative to: DMSO,log2 fold change,-0.304
Cc1ccc(C(=O)Nc2ccc(CN3CCN(C)CC3)c(C(F)(F)F)c2)cc1C#Cc1cnc2cccnn12,,platelet aggregation,platelet-rich plasma,"0.1 µM, DMSO 100, with: collagen 2 mg/mL",,aggregation,8.3%
C[C@H](NC(=O)c1c(C(F)F)nn(C)c1Oc1cccc(C(F)(F)F)c1)c1ccc(C(=O)O)cc1,,,"human, advanced tumours","250 mg, irRECIST",,objective response rate,0%
CO[C@H]1CC[C@H](N2C(=O)CNc3ncc(-c4ccc(C(C)(C)O)nc4)nc32)CC1,,flow cytometry,"stimulated B cells, human, blood","45 mg single dose, 1.5 h, mean",relative to: baseline,pS6RP change from baseline,-72.1%
C[C@@H](NC(=O)N1C(=O)[C@H](Cc2ccnc(N)c2)[C@H]1C(=O)O)C1CCCCC1,,,human,"iv infusion, 0.3 mg/kg/h, 24 h, unit not given",relative to: baseline,PT AUEC,148
COc1ccc(-c2cncc(N[C@@H](C)c3cccc(NC(=O)c4cncc(C)c4)c3)n2)cc1OC,,item: rno-miR-329-3p,"rat SU5416/hypoxia model, lung","dose not given, unit not given",relative to: SU5416/hypoxia vehicle,delta delta Ct,-0.117
CCCCC1(CCCC)CN(c2ccccc2)c2cc(SC)c(OCC(=O)N[C@@H](C(=O)NCC(=O)O)c3ccccc3)cc2S(=O)(=O)C1,,item: 7α-hydroxy-4-cholesten-3-one,"human, plasma","5 mg once daily, day 2",,plasma C4,47 ng/mL
C[C@H]1C[C@H]2CSC(N)=N[C@@]2(c2nc(NC(=O)c3ccc(OC(F)F)cn3)cs2)CO1,,item: Aβx-40,"healthy adults, plasma","12 mg single dose, 4 h post-dose",relative to: placebo,percent change from baseline,-48.4%
C[C@H](Oc1ccc(Br)cc1-c1ccon1)C(=O)O,,muscle velocity recovery cycle,"human, tibialis anterior muscle","400 mg once daily, last response peak at 30 Hz, multiple ascending dose",,difference from placebo,8.97%
FC(F)(F)Oc1cccc(-c2ccnc3[nH]c(C(F)(F)F)nc23)c1,,,GAN diet MASH mice,"300 mg/kg, 31 days",relative to: GAN control,plasma cholesterol,no effect
CC(=O)Oc1cc2c(s1)CCN(C(C(=O)C1CC1)c1ccccc1F)C2 (centres unmarked),,"platelet aggregation, light transmission aggregometry","human patients, platelet-rich plasma","dose not given, 30 min, inhibition threshold 90%, with: ADP 5 µM",,patients with inhibition above threshold,0%
Nc1ccccc1C(=O)C[C@H](N)C(=O)O,,"binding, equilibrium dialysis LC-MS",,"5 µM, thermostabilized A2AR-BRIL construct","relative to: no-protein control, direction not given",z-scored log2 fold change,0.17
OC(CCN1CCCCC1)(c1ccccc1)C1CC2C=CC1C2 (centres unmarked),,resting-state EEG,healthy elderly humans,"oral, 2 mg, eyes open, LS mean",,EEG Alpha2-power Pz-O1,2.9 µV²
O=C1O[C@H]([C@@H](O)CO)C(O)=C1O,,ABTS radical,,300 µg/mL,,radical scavenging,98.86 ± 0.15%

# Some of these lines once more:
Compound,tested on,test,system,conditions,how to read,quantity,value
CC(=O)Oc1cc2c(s1)CCN(C(C(=O)C1CC1)c1ccccc1F)C2 (centres unmarked),,"platelet aggregation, light transmission aggregometry","human patients, platelet-rich plasma","dose not given, 30 min, inhibition threshold 90%, with: ADP 5 µM",,patients with inhibition above threshold,0%
Nc1ccccc1C(=O)C[C@H](N)C(=O)O,,"binding, equilibrium dialysis LC-MS",,"5 µM, thermostabilized A2AR-BRIL construct","relative to: no-protein control, direction not given",z-scored log2 fold change,0.17
OC(CCN1CCCCC1)(c1ccccc1)C1CC2C=CC1C2 (centres unmarked),,resting-state EEG,healthy elderly humans,"oral, 2 mg, eyes open, LS mean",,EEG Alpha2-power Pz-O1,2.9 µV²
